Measured values of several laboratories.
Each line is one published result; not all experiments were run side by side. “And” joins repeats or separate records; there may be more than shown. Numbers after ± are the reported error.
Chymotrypsinogen A: Chymotrypsinogen A (Bos taurus, UniProt P00766)
ache: Acetylcholinesterase (ache, Electrophorus electricus, UniProt O42275)
UniProt A2AJ88, sequence (whole entry, looked up): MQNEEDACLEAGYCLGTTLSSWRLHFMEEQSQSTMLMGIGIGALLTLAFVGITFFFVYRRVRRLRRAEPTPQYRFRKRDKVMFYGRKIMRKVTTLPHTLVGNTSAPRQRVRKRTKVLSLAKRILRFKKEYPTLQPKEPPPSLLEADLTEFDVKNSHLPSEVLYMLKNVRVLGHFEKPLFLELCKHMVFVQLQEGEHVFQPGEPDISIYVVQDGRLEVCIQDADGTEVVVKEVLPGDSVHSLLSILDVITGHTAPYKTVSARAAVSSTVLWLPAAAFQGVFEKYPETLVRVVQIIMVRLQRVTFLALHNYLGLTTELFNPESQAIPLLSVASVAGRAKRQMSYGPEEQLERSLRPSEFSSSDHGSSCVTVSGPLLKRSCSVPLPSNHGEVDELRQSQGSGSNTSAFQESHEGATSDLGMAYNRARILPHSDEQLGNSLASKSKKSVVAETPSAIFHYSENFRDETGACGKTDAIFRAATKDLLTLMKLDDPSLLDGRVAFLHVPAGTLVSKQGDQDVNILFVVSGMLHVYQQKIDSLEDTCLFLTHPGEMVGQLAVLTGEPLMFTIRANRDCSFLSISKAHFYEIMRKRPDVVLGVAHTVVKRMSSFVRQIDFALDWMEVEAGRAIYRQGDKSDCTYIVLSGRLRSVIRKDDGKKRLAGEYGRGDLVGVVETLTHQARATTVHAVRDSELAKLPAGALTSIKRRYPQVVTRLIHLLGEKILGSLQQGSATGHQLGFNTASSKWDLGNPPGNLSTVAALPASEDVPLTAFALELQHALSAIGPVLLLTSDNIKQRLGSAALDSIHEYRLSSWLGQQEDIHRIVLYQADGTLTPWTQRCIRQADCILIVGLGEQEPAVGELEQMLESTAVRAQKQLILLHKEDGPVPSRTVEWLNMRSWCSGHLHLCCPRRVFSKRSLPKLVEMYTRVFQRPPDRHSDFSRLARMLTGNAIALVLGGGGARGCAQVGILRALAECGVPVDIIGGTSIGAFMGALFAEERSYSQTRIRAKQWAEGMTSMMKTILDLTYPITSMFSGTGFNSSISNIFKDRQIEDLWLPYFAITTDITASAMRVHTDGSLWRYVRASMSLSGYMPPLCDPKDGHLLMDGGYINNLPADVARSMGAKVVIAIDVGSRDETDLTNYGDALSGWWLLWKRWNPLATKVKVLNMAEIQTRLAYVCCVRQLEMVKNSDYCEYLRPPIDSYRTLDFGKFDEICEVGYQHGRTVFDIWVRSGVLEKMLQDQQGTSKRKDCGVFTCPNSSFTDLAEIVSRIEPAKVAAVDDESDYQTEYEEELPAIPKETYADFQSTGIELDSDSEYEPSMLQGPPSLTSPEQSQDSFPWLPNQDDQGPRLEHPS
UniProt Q00987, sequence (whole entry, looked up): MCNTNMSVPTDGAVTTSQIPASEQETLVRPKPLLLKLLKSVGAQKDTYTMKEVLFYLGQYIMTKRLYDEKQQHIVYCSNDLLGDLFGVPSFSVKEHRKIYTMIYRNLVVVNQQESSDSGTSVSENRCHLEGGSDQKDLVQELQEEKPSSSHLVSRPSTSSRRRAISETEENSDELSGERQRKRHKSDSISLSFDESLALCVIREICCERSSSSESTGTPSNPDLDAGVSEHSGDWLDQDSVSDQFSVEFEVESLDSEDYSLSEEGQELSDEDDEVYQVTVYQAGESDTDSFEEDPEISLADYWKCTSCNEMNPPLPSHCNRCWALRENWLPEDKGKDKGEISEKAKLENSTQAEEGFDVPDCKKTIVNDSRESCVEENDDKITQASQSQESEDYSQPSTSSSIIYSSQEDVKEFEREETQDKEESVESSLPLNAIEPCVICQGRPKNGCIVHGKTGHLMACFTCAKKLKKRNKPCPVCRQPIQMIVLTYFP
UniProt Q9Y2J8, sequence (whole entry, looked up): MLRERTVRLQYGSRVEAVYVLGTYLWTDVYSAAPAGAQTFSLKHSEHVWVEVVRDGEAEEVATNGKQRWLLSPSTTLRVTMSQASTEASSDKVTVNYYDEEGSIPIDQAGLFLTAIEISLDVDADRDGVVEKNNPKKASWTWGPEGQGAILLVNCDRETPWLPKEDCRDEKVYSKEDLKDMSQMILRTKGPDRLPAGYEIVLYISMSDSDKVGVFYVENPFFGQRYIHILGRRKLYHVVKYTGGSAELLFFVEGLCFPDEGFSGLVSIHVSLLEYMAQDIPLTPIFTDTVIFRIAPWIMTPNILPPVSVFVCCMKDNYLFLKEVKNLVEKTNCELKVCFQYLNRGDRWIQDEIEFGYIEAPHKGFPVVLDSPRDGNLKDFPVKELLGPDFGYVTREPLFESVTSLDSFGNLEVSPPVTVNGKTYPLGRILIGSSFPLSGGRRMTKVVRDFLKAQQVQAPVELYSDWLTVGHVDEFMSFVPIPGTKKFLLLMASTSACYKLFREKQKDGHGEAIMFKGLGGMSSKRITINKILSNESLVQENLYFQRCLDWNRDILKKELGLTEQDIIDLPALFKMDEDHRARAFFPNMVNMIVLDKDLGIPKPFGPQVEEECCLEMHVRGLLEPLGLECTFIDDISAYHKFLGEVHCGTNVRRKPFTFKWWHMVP
UniProt Q9UH17, sequence (whole entry, looked up): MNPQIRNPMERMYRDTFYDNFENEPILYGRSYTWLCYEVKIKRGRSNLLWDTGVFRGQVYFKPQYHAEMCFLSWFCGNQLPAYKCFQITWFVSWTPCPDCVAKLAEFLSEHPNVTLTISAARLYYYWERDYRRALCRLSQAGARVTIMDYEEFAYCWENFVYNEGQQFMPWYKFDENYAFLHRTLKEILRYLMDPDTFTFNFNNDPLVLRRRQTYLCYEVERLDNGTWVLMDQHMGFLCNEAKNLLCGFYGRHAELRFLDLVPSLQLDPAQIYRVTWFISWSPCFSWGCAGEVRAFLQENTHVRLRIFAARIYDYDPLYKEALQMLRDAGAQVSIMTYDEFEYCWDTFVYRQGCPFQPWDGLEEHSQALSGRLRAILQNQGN
UniProt O42275, sequence (whole entry, looked up): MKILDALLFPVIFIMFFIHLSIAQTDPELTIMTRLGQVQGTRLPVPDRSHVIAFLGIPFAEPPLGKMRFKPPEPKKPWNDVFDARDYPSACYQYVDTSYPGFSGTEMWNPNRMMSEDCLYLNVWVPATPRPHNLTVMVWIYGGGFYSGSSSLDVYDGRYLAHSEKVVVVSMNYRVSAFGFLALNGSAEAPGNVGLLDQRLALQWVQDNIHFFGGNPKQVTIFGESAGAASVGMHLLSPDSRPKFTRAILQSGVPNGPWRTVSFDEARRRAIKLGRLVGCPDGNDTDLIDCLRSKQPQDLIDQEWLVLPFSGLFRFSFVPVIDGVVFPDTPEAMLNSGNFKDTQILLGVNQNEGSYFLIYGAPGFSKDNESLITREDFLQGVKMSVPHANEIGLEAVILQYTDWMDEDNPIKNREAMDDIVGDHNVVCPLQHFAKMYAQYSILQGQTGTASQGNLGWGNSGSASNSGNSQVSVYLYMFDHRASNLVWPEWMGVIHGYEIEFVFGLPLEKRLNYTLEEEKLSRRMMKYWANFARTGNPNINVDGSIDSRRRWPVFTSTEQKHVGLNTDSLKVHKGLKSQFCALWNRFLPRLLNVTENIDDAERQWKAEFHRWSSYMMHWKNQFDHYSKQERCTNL
UniProt P49137, sequence (whole entry, looked up): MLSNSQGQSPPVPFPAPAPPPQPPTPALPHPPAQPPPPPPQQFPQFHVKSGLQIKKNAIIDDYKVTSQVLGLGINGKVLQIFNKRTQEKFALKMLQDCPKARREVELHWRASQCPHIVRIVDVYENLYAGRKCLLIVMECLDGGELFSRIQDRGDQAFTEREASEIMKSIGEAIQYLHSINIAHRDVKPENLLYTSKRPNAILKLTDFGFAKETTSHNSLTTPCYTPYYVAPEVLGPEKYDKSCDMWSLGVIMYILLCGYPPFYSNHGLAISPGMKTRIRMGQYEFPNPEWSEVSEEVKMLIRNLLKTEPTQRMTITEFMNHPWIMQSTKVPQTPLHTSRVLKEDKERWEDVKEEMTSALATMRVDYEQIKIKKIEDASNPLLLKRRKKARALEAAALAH
UniProt P13346, sequence (whole entry, unmodified, looked up): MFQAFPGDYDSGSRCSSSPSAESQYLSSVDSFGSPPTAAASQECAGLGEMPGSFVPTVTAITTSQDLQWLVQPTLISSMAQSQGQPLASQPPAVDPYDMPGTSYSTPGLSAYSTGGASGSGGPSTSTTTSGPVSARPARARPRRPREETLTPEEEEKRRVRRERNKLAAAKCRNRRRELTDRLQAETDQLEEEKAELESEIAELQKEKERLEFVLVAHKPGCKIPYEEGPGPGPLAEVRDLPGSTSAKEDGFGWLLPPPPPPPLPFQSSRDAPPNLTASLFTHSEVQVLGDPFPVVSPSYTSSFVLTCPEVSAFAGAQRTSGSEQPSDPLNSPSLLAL
UniProt Q96GW9, sequence (whole entry, looked up): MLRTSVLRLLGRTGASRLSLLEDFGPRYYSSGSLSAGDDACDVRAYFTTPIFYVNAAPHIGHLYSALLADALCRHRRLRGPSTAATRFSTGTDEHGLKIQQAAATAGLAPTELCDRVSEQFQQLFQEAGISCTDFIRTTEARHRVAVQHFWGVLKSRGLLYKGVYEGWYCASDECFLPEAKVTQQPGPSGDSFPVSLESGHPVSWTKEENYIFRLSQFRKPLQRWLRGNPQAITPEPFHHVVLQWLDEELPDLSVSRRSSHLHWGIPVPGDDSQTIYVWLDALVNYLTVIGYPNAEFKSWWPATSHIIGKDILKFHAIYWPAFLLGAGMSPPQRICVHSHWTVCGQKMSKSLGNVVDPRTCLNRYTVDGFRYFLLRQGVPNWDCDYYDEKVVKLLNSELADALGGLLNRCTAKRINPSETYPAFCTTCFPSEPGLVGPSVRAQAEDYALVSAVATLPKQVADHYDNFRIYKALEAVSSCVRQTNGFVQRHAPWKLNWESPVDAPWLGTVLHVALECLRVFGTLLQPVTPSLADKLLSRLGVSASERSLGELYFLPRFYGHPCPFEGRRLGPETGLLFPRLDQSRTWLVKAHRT

Compound = CCn1cc(-c2cc([C@@H](C)NC(=O)c3cc(OCCN(C)C)ccc3C)c3ccccc3n2)c(C(F)(F)F)n1; tested on = Vero E6; conditions = 3.906 µM; endpoint = viability; value = 107% and 108%
Compound = [CH3][Ti+2][O]C(=O)c1ccc([S][Au][PH](c2ccccc2)(c2ccccc2)c2ccccc2)cc1.c1cc[cH-]c1.c1cc[cH-]c1; tested on = MAPKAPK2 (Homo sapiens, UniProt P49137); assay = kinase activity, HotSpot radiometric; conditions = 1 µM, added: ATP 10 µM; how to read = relative to: vehicle; endpoint = remaining activity; value = 39.2% and 39.4%
Compound = CC(=O)N[C@@H](CCC(N)=O)C(=O)N[C@@H](CC1CCCCC1)C(=O)N[C@@H](CNC(=O)CCl)C(=O)N[C@@H](CC(C)C)C(=O)N[C@@H](Cc1ccccc1)C(=O)O; tested on = Beta sliding clamp (Escherichia coli, UniProt P0A988); assay = binding, isothermal titration calorimetry; conditions = pH 7.4, 22 °C; endpoint = ΔG; value = -9.2 kcal/mol
Compound = CC[C@H](C)[C@@H]1NC(=O)[C@H](Cc2ccccc2)NC(=O)C[C@H](CC(=O)O)NC(=O)[C@@H](NC(=O)[C@@H](NC(=O)[C@H](CO)NC(=O)[C@@H](N)Cc2ccc(O)cc2)[C@@H](C)O)CSC(=O)[C@H](CCSC)NC1=O; tested on = agrC (Staphylococcus aureus, UniProt O07911); assay = reporter gene, agonist, β-lactamase reporter; how to read = relative to: mutant over native AIP-I; endpoint = EC50 ratio; value = ~80 fold
Compound = CC[C@H](C)[C@@H]1NC(=O)[C@H](CC(C)C)NC(=O)CNC(=O)[C@H](CCCNC(=N)N)NC(=O)[C@H](Cc2c[nH]c3ccccc23)NC(=O)[C@H](CCSC)NC(=O)[C@H](CO)NC(=O)[C@H](CCC(=O)O)NC(=O)[C@H](Cc2ccccc2)NC(=O)[C@H](CC(=O)O)NC(=O)[C@H]([C@@H](C)O)NC(=O)CNC(=O)[C@H](CCC(=O)O)NC(=O)[C@H]([C@@H](C)O)NC(=O)CNC(=O)[C@H](CC(=O)O)NC1=O; tested on = MDM2 (Homo sapiens, UniProt Q00987); assay = MDM2-ligand binding, inhibitor, AlphaLISA competition; conditions = 0.7812 µM, added: GST-tagged MDM2 ligand; how to read = lower = stronger inhibition; endpoint = AlphaLISA signal; value = 4710 a.u. and 4840 a.u. and 4780 a.u.
Compound = CCOC(=O)[C@@H]1Cc2c(cc([N+](=O)[O-])cc2[N+](=O)[O-])[C@H](O)[C@]12C(=O)Nc1ccc(Br)cc12; tested on = MAPK10 (Homo sapiens, UniProt P53779); assay = KINOMEscan; conditions = 100 nM; how to read = relative to: DMSO control; endpoint = remaining binding; value = 75%
Compound = O=C(N1CCCCC1)n1ccnn1; tested on = Patatin-like phospholipase domain-containing protein 7 (Pnpla7, Mus musculus, UniProt A2AJ88); assay = probe labelling, inhibitor, competitive ABPP-SILAC, measured: Pnpla7; test system = mouse T cells; conditions = concentration not given, 4 h, in situ, single peptide; how to read = relative to: treated over DMSO, lower = more inhibition; endpoint = SILAC ratio; value = 0.8 and 0.68 and 0.9 and 0.82 and 1.03 and 0.97 and 0.87 and 0.78
Compound = CC(C)[C@H]1NC(=O)C[C@H]2/C=C/CCSSC[C@@H](NC1=O)C(=O)N[C@H](Cc1cccc3ccccc13)C(=O)NCC(=O)O2; tested on = MAPKAPK5 (Homo sapiens, UniProt Q8IW41); assay = enzyme activity, inhibitor; conditions = 10 µM; endpoint = inhibition; value = -1.1%
Compound = CC(C)Oc1ccc(B(O)O)c(F)n1; tested on = Chymotrypsinogen A; assay = pNA substrate hydrolysis; how to read = relative to: Ki protease over Ki AmpC; endpoint = selectivity ratio; value = 1680
Compound = CCOC(=O)[C@@](CC)(CCCSCCOCCOCCNc1ccc([N+](=O)[O-])c2nonc12)NC(=O)c1ccc(C2CC2)c(Cc2ccc(F)cc2)n1; tested on = CNR2 (Homo sapiens, UniProt P34972); assay = radioligand binding; how to read = relative to: CB1 over CB2 (human); endpoint = Ki ratio; value = 31
Compound = COc1ccc(C(=O)CCl)c2c1C(=O)CO2; tested on = Fosb/Jund, ΔFosB bZIP domain (Mus musculus, UniProt P13346+P15066); assay = intact mass LC-MS, measured: unmodified JUND bZIP; conditions = concentration not given; how to read = relative to: total JUND species; endpoint = relative abundance; value = 0%
Compound = C#CCCCCOc1ccc2c(c1)CCCN2C(=O)CCl; tested on = DEGS1 (Homo sapiens, UniProt O15121); assay = mass spectrometry profiling; test system = H460 cell lysate; conditions = 100 µM over 10 µM, UniProt O15121; how to read = relative to: high over low concentration; endpoint = reactivity ratio; value = 1.49
Compound = O=C1NC2(CC2)COc2ncc(F)cc2[C@H]2COCCN2c2ccn3ncc1c3n2; test system = Sprague-Dawley rat, female, thymus; conditions = oral, 20 mg/kg/day, 4 weeks dosing, end of recovery; endpoint = organ-to-body weight ratio; value = 0.115 ± 0.044%
Compound = O=C(O)C(/C=C/c1c(Cl)cccc1Cl)=N\Nc1nc(-c2ccc([N+](=O)[O-])cc2)cs1; tested on = ache; assay = Ellman; how to read = relative to: IC50 BChE over IC50 AChE; endpoint = selectivity index; value = 8.73
Compound = C[C@@H](Cc1ccsc1)NC(=O)NC[C@H](Cc1ccc(O)cc1)N(C)C; tested on = Mu-type opioid receptor, with Gi1 (OPRM1, Homo sapiens, UniProt P35372); assay = receptor activation, agonist; endpoint = Emax; value = 68 ± 3%
Compound = COc1ccccc1-c1n[nH]c2nc(N[C@H]3CC[C@H](NS(=O)(=O)CC(C)C)CC3)ncc12; tested on = protein kinase LINJ.27.0100; assay = bead competition pull-down; test system = Leishmania extract; conditions = 10 µM; how to read = relative to: vehicle; endpoint = relative captured amount; value = 0.58
Compound = O=C1c2ccccc2C(=O)c2c1ccc(O)c2O; tested on = PNLIP (Homo sapiens, UniProt P16233); assay = enzyme activity, inhibitor, fluorescence; conditions = 50 µM; endpoint = remaining activity; value = 4.89%
Compound = N[C@H](C(=O)N1CCCC1)C1CCN(c2nccc3c(-c4ncc(Cl)cc4Cl)cccc23)CC1; tested on = PADI2 (Homo sapiens, UniProt Q9Y2J8); assay = enzyme activity; conditions = 0.0983 µM, low-affinity site, added: Ca2+ 0.25 mM; endpoint = kcat; value = 0.336 s⁻¹ and 0.379 s⁻¹
Compound = CS(C)(=O)=Nc1ccc(-c2ccc(-c3nc4cc(O[C@@H]5CO[C@H]6[C@@H]5OC[C@H]6O)[nH]c4cc3F)cc2)cc1; tested on = EIF2AK2 (Homo sapiens, UniProt P19525); assay = enzyme activity, inhibitor; conditions = 10 µM; endpoint = inhibition; value = 2%
Compound = CC(C)CC(O)(CC(C)C)c1cn(C(=O)N2CCCC2)nn1; tested on = (Lyso)-N-acylphosphatidylethanolamine lipase (Abhd4, Mus musculus, UniProt Q8VD66); assay = probe labelling, inhibitor, measured: Abhd4; test system = mouse, brain; conditions = i.p., 0.8 mg/kg, 4 h, protein level; how to read = relative to: treated over vehicle mice, lower = stronger inhibition; endpoint = activity ratio-of-ratios; value = 0.54
Compound = Fc1ccc2[nH]c(NCCCNCc3cc(Cl)cc(Cl)c3)nc2n1; tested on = MARS2 (Homo sapiens, UniProt Q96GW9); assay = enzyme activity; how to read = relative to: human IC50 over T. brucei IC50; endpoint = selectivity ratio; value = > 2
Compound = CN(C)[C@H]1C[C@@]23CC[C@@]4(O2)C(=CC[C@]2(C)[C@@H](c5ccc6ccncc6c5)CC[C@H]24)C=C3[C@@H](O)[C@@H]1O; tested on = SGK3 (Homo sapiens, UniProt Q96BR1); assay = ATP probe labelling, inhibitor, KiNativ profiling; conditions = 0.1 µM; endpoint = inhibition; value = -1.6%
Compound = O=C(O)c1ccc(/N=N/c2cccc([B-](F)(F)F)c2)cc1.[K+]; tested on = Chymotrypsinogen A; assay = enzyme activity, inhibitor; conditions = added: Suc-AAPF-AMC; how to read = relative to: Ki cis over Ki trans; endpoint = switching factor; value = 7 ± 2.5
Compound = O=C1NC(=O)c2c1c1cc(F)c[n+]3c1c1c2c2cc(O)ccc2[n]1[Ru-4]312([N]=C=S)[S+]3CC[S+]1CC[S+]2CC3 (stereo not drawn); tested on = FLT1 (Homo sapiens, UniProt P17948); assay = enzyme activity; conditions = 100 nM, human enzyme, added: 10 µM ATP; how to read = relative to: untreated; endpoint = remaining activity; value = 17%
Compound = CCn1nc(Cl)c2c1-c1cnc(N)c(c1)O[C@H](C)c1cc(F)ccc1-c1nn(C)cc1C2; tested on = PTK6 (Homo sapiens, UniProt Q13882); assay = kinase activity, inhibitor; how to read = relative to: IC50 PTK6 over IC50 ALK; endpoint = selectivity ratio; value = 83 fold
Compound = CS(=O)(=O)N1CCN(C(=O)Cc2ccc(Cl)c(Cl)c2)[C@H]2[C@H]1COC[C@@H]2N1CCCC1 (single isomer, unassigned); tested on = OPRK1 (Homo sapiens, UniProt P41145); assay = β-arrestin-2 recruitment, agonist; test system = U2OS; conditions = 1.5 h; how to read = relative to: U-69593 maximal response; endpoint = Emax; value = 99%
Compound = COc1cc(OC)c2c(=O)cc(-c3cc(C)c(OCCCN4CCN(C)CC4)c(C)c3)oc2c1; tested on = Bromodomain-containing protein 4, BD1 (BRD4, Homo sapiens, UniProt O60885); assay = binding, TR-FRET; how to read = relative to: other BET bromodomains over BRD4; endpoint = selectivity ratio; value = > 10 fold
Compound = Cc1ccc(OCCN(C)C)cc1C(=O)N[C@H](C)c1cc(-c2ccc(CNC3CCCC3)s2)nc2ccccc12; tested on = Vero E6; conditions = 15.62 µM; endpoint = viability; value = 1.83% and -1.14%
Compound = C=CC(=O)Nc1cc(-c2ccc(C(=O)N3CCCC(O)(CC)C3)cc2)ccc1F (stereo not drawn); tested on = DNA dC->dU-editing enzyme APOBEC-3B, C-terminal domain (Homo sapiens, UniProt Q9UH17); assay = covalent adduct, intact protein MS; conditions = 3 h, 10-fold excess, 250 µM; endpoint = unmodified protein; value = 53% and 40%
Compound = CCc1nc2ccc(C(=O)NCCN3CCOCC3)cn2c1N(C)C(=O)C1CCCCC1; tested on = ache; assay = inhibitor; conditions = 5 µM; endpoint = activity; value = active
